Published values from different studies.
Lines come from different studies, so protocols differ. Values joined by “and” are separate records of one study, mostly repeats; a detail may differ.
Target: Tyrosine-protein kinase Fgr (FGR, Homo sapiens, UniProt P09769)

Compound | assay | setting | how to read | quantity | value
C=CC(=O)N1CCCC(n2c(=O)c3ncccc3n(Cc3ccc(Oc4ccccc4)cc3)c2=O)C1 (stereo not drawn) | cell-free assay, competition with immobilised ligand | 1 µM | – | remaining binding | 100%
Cc1cnc2nc1Nc1cccc(c1)COC/C=C/COCc1cc(ccc1OCCN1CCOCC1)N2 | cell-free assay | 0.1 µM | – | remaining signal | 81%
O=C(Cc1ccc(OCc2ccccc2)cc1)NC1(C(=O)O)CCN(C(=O)c2ccc(-c3cccc(Cl)c3)cc2)CC1 | enzyme activity, inhibitor | 10 µM | – | activity vs control | 115%
CNC(=O)C1CCN(c2cc(C)c(F)cc2NC(=O)c2ccc(-c3cc(O)ccc3C)c(C)c2)CC1 | binding, competition with immobilised ligand | 1 µM | – | remaining binding | 1.5%
Cc1cccc(O[C@H]2CCC[C@@H](C(C)CNCc3ccncc3)C2)c1 (relative stereo) | cell-free assay, inhibitor | 1 µM | – | inhibition | 0%
COc1c(OCCCN2CCOCC2)ccc2c1N=C(NC(=O)c1cnc(N)nc1)N1CCN=C21 | kinase activity, inhibitor | 1 µM | relative to: untreated control | remaining activity | 76%
CCn1cc(C(=O)O)c(=O)c2c(N)c(F)c(NC3CCCCC3)cc21 | kinase activity | 0.1 µM, added: ATP at Km | – | inhibition | -10.7%
C[C@H]1CN(C(=O)c2cn(-c3ccnc(N)n3)c3cc(C#CC4(O)CCCCC4)ccc23)CCN1 | enzyme activity, inhibitor, FRET | 1 µM | – | inhibition | 1%
C=CC(=O)Nc1cccc(-c2cnc3[nH]cc(C(=O)NC(C)(C)C)c3n2)c1 | kinase activity | 0.1 µM | – | inhibition | 5% and 3%
CN1CCN(Cc2ccc(-c3ccc(CO[C@H]4CCC[C@@H]4NC(=O)c4cc(-c5cnn(C)c5)cnc4N)cc3)cc2)CC1 | enzyme activity, inhibitor | 0.1 µM | – | inhibition | -1%
NC(=O)C[C@H]1CCc2sc3ncnc(O[C@H]4CC[C@H](N5CCOCC5)CC4)c3c21 | enzyme activity, inhibitor, radiometric | 10 µM | – | inhibition | 18%
CNC1C[S+]2CC[S+]3CC[S+](C1)[Ru-4]321([N]=C=S)[n]2c3ccc(OC)cc3c3c4c(c5cc(F)c[n+]1c5c32)C(=O)NC4=O (stereo not drawn) | KinomeScan | 0.1 µM | relative to: untreated | remaining binding | 90%
CCN1CCN(Cc2ccc(C(=O)Nc3ccc(C)c(NCc4cnc5[nH]ccc5c4OC)c3)cc2C(F)(F)F)CC1 | binding, competition with immobilised ligand | 1 µM | – | remaining binding | 1%
COc1cc(Nc2nccc(-c3cnn4nc(OC)ccc34)n2)cc(C(F)(F)F)c1 | binding, competition with immobilised ligand | 1 µM | – | remaining binding | 86%
C=CC(=O)N1Cc2nc(-c3cc(-c4cc(Cl)cnc4Cl)c(F)cc3F)n(-c3ccncn3)c2C1 | cell-free assay, inhibitor | 1 µM | – | inhibition | 6.8%

Excerpt of the above:
Compound | assay | setting | how to read | quantity | value
COc1cc(Nc2nccc(-c3cnn4nc(OC)ccc34)n2)cc(C(F)(F)F)c1 | binding, competition with immobilised ligand | 1 µM | – | remaining binding | 86%
C=CC(=O)N1Cc2nc(-c3cc(-c4cc(Cl)cnc4Cl)c(F)cc3F)n(-c3ccncn3)c2C1 | cell-free assay, inhibitor | 1 µM | – | inhibition | 6.8%
